# Published values gathered from unrelated publications.
# Compare with care: the assays were run in different laboratories. Numbers after ± are the reported error.
# Organism: Escherichia coli
Compound,assay,test system,setting,how to read,measurement,value
CCCCCCCCCC(=O)Oc1c(C)c(OC)c2c(c1C)OC(=O)C(CCCCCCCC)C2(O)C=Cc1ccccc1 (centres unmarked),"microbial killing, broth dilution",ATCC25922,,,MBC,> 5000 µg/mL
CC[C@H](C)[C@H](NC(=O)[C@@H]1CCCN1C(=O)[C@H](CCSC)NC(=O)[C@H](CC(C)C)NC(=O)[C@H](Cc1ccccc1)NC(=O)[C@H](Cc1ccc(O)cc1)NC(=O)[C@@H]1CCC(=O)NCC(=O)NCC(=O)NCC(=O)NCC(=O)N2CCC[C@H]2C(=O)N[C@@H]([C@@H](C)O)C(=O)N2CCC[C@H]2C(=O)N1)C(=O)N[C@@H](CC(=O)O)C(=O)N1CCC[C@H]1C(=O)N[C@@H](C)C(=O)N[C@@H](Cc1c[nH]c2ccccc12)C(=O)N[C@@H](CC(C)C)C(=O)N[C@@H](CCC(N)=O)C(=O)N[C@@H](C)C(=O)N[C@@H](CC(N)=O)C(=O)N[C@@H](CC(C)C)C(=O)N1CCC[C@H]1C(=O)N[C@@H](CC(N)=O)C(=O)N[C@H](C(=O)NCC(=O)N[C@@H](CCCCN)C(=O)N[C@@H](Cc1ccc(O)cc1)C(=O)N[C@@H](CC(N)=O)C(=O)O)[C@@H](C)O,spot-on-lawn,MG1655 wild type,"concentration not given, 37 °C",,antimicrobial activity,inactive
OC[C@H]1O[C@@H]2O[C@H]3[C@H](O)[C@@H](O)[C@@H](O[C@H]4[C@H](O)[C@@H](O)[C@@H](O[C@H]5[C@H](O)[C@@H](O)[C@@H](O[C@H]6[C@H](O)[C@@H](O)[C@@H](O[C@H]7[C@H](O)[C@@H](O)[C@@H](O[C@H]1[C@H](O)[C@H]2O)O[C@@H]7CO)O[C@@H]6CO)O[C@@H]5CO)O[C@@H]4CO)O[C@@H]3CO,"LuxR reporter, antagonist",DH5α sensor strain,"1 µM, added: OHHL 200 nM",,inhibition,-1 ± 1%
CCCC[C@H](NC(=O)[C@@H](N)CCCN)C(=O)N[C@@H](CC1CCCCC1)C(=O)N[C@H](C(=O)N[C@H](Cc1ccccc1)C(=O)N[C@@H](Cc1cn(Cc2ccccc2)cn1)C(N)=O)[C@@H](C)CC,bacterial growth,ATCC 35218,,,IC50,> 20 µg/mL
N=C(N)NCCC[C@@H]1NC(=O)[C@H](CCCNC(=N)N)NC(=O)[C@@H](C(c2ccccc2)c2ccccc2)NC(=O)[C@H](Cc2c[nH]c3ccccc23)NC(=O)[C@@H](C(c2ccccc2)c2ccccc2)NC(=O)[C@@H](CCCNC(=N)N)NC(=O)[C@@H](CCCNC(=N)N)NC1=O,,ATCC BAA-2452,"1 x MIC, 24 h, preformed biofilm",,biofilm mass reduction,41 to 49%
O=C(Oc1cccccc1=O)c1ccc(Cl)cc1,"microbial growth, broth dilution",ATCC35218,,,MIC80,100 µM
CO[C@@H]1[C@@H](OC)[C@H]2O[C@H]3[C@H](OC)[C@@H](OC)[C@@H](O[C@H]4[C@H](OC)[C@@H](OC)[C@@H](O[C@H]5[C@H](OC)[C@@H](OC)[C@@H](O[C@H]6[C@H](OC)[C@@H](OC)[C@@H](O[C@H]7[C@H](OC)[C@@H](OC)[C@@H](O[C@H]8[C@H](OC)[C@@H](OC)[C@@H](O[C@@H]1[C@@H](Cn1cc(CCCC(=O)N[C@H]9CCOC9=O)nn1)O2)O[C@@H]8Cn1cc(CCCC(=O)N[C@H]2CCOC2=O)nn1)O[C@@H]7Cn1cc(CCCC(=O)N[C@H]2CCOC2=O)nn1)O[C@@H]6Cn1cc(CCCC(=O)N[C@H]2CCOC2=O)nn1)O[C@@H]5Cn1cc(CCCC(=O)N[C@H]2CCOC2=O)nn1)O[C@@H]4Cn1cc(CCCC(=O)N[C@H]2CCOC2=O)nn1)O[C@@H]3Cn1cc(CCCC(=O)N[C@H]2CCOC2=O)nn1,"LuxR reporter, antagonist",DH5α sensor strain,"20 µM, added: OHHL 200 nM",,inhibition,17 ± 1%
CCCCCCCCCCCC(=O)Oc1c(C)c(OC)c2c(/C=C/c3ccccc3)c(CCCCCCCCCC)c(=O)oc2c1C,"microbial killing, broth dilution",ATCC25922,,,MBC,> 5000 µg/mL
COc1ccccc1C(=O)Oc1cccccc1=O,"microbial growth, broth dilution",ATCC35218,,,MIC80,100 µM
O=C(CCCc1cn(C[C@H]2O[C@@H]3O[C@H]4[C@H](O)[C@@H](O)[C@@H](O[C@H]5[C@H](O)[C@@H](O)[C@@H](O[C@H]6[C@H](O)[C@@H](O)[C@@H](O[C@H]7[C@H](O)[C@@H](O)[C@@H](O[C@H]8[C@H](O)[C@@H](O)[C@@H](O[C@H]9[C@H](O)[C@@H](O)[C@@H](O[C@H]2[C@H](O)[C@H]3O)O[C@@H]9Cn2cc(CCCC(=O)N[C@H]3CCOC3=O)nn2)O[C@@H]8Cn2cc(CCCC(=O)N[C@H]3CCOC3=O)nn2)O[C@@H]7Cn2cc(CCCC(=O)N[C@H]3CCOC3=O)nn2)O[C@@H]6Cn2cc(CCCC(=O)N[C@H]3CCOC3=O)nn2)O[C@@H]5Cn2cc(CCCC(=O)N[C@H]3CCOC3=O)nn2)O[C@@H]4Cn2cc(CCCC(=O)N[C@H]3CCOC3=O)nn2)nn1)N[C@H]1CCOC1=O,"LuxR reporter, antagonist",DH5α sensor strain,"1 µM, added: OHHL 200 nM",,inhibition,17 ± 18%
COc1c(C)c(OS(=O)(=O)c2ccccc2)c(C)c(OS(=O)(=O)c2ccccc2)c1C(=O)/C=C/c1ccccc1,"microbial killing, broth dilution",ATCC25922,,,MBC,> 5000 µg/mL
CC(CCCOC(=O)CCC[N+](C)(C)C)C1CCC2C3CCC4CC(OC(=O)CCC[N+](C)(C)C)CCC4(C)C3CCC12C (centres unmarked),"microbial growth, disc diffusion",ATCC25922,"62.5 µg/disc, 24 h",,inhibition zone,13 mm
COc1c(C)c(OS(=O)(=O)c2ccccc2)c(C)c(O)c1C(=O)/C=C/c1ccccc1,"microbial killing, broth dilution",ATCC25922,,,MBC,> 5000 µg/mL
CO[C@@H]1[C@@H](OC)[C@H]2O[C@H]3[C@H](OC)[C@@H](OC)[C@@H](O[C@H]4[C@H](OC)[C@@H](OC)[C@@H](O[C@H]5[C@H](OC)[C@@H](OC)[C@@H](O[C@H]6[C@H](OC)[C@@H](OC)[C@@H](O[C@H]7[C@H](OC)[C@@H](OC)[C@@H](O[C@@H]1[C@@H](Cn1cc(CCCC(=O)N[C@H]8CCOC8=O)nn1)O2)O[C@@H]7Cn1cc(CCCC(=O)N[C@H]2CCOC2=O)nn1)O[C@@H]6Cn1cc(CCCC(=O)N[C@H]2CCOC2=O)nn1)O[C@@H]5Cn1cc(CCCC(=O)N[C@H]2CCOC2=O)nn1)O[C@@H]4Cn1cc(CCCC(=O)N[C@H]2CCOC2=O)nn1)O[C@@H]3Cn1cc(CCCC(=O)N[C@H]2CCOC2=O)nn1,"LuxR reporter, antagonist",DH5α sensor strain,"10 µM, added: OHHL 200 nM",,inhibition,8 ± 5%
Cc1ccnc(-c2cc(C(=O)NCCCCCC(=O)N[C@@H](CCCNC(=N)N)C(=O)N[C@@H](Cc3c[nH]c4ccccc34)C(=O)N[C@@H](CCCNC(=N)N)C(=O)N[C@@H](Cc3c[nH]c4ccccc34)C(=O)N[C@@H](CCCNC(=N)N)C(=O)N[C@@H](Cc3c[nH]c4ccccc34)C(N)=O)ccn2)c1,,resistant,"16 µM, dark",reference: untreated,reduction in viable count,< 3 log10 CFU
O=C(CCCc1cn(C[C@H]2O[C@@H]3O[C@H]4[C@H](O)[C@@H](O)[C@@H](O[C@H]5[C@H](O)[C@@H](O)[C@@H](O[C@H]6[C@H](O)[C@@H](O)[C@@H](O[C@H]7[C@H](O)[C@@H](O)[C@@H](O[C@H]8[C@H](O)[C@@H](O)[C@@H](O[C@H]9[C@H](O)[C@@H](O)[C@@H](O[C@H]2[C@H](O)[C@H]3O)O[C@@H]9CO)O[C@@H]8CO)O[C@@H]7CO)O[C@@H]6CO)O[C@@H]5CO)O[C@@H]4CO)nn1)N[C@H]1CCOC1=O,"LuxR reporter, antagonist",DH5α sensor strain,"1 µM, added: OHHL 200 nM",,inhibition,3 ± 1%
CC[C@H](C)[C@H](NC(=O)[C@H](CCCN)NC(=O)[C@H](CC(N)=O)NC(=O)[C@H](Cc1c[nH]c2ccccc12)NC(=O)[C@H](Cc1ccccc1)NC(=O)[C@H](CCCN)NC(=O)[C@H](CCCCNC(=N)N)NC(=O)[C@H](CC(C)C)NC(=O)[C@H](Cc1c[nH]c2ccccc12)NC(=O)[C@H](CCCN)NC(=O)[C@H](CCCCNC(=N)N)NC(=O)[C@H](CC(C)C)NC(=O)CNC(C)=O)C(=O)N[C@@H](CCCN)C(=O)N[C@@H](CCCCNC(=N)N)C(N)=O,,ATCC 25922,"concentration not given, added: MgCl2 1 mM",reference: no added salt,MIC fold change,1 fold

# Excerpt of the above:
Compound,assay,test system,setting,how to read,measurement,value
N=C(N)NCCC[C@@H]1NC(=O)[C@H](CCCNC(=N)N)NC(=O)[C@@H](C(c2ccccc2)c2ccccc2)NC(=O)[C@H](Cc2c[nH]c3ccccc23)NC(=O)[C@@H](C(c2ccccc2)c2ccccc2)NC(=O)[C@@H](CCCNC(=N)N)NC(=O)[C@@H](CCCNC(=N)N)NC1=O,,ATCC BAA-2452,"1 x MIC, 24 h, preformed biofilm",,biofilm mass reduction,41 to 49%
O=C(Oc1cccccc1=O)c1ccc(Cl)cc1,"microbial growth, broth dilution",ATCC35218,,,MIC80,100 µM
